Assay results from different studies.
Lines come from different studies, so protocols differ. ± marks the error that the study gave.
CTSB: Cathepsin B (CTSB, Homo sapiens, UniProt P07858)
GBA2: Beta-glucosidase (GBA2, Homo sapiens, UniProt Q9HCG7)
EPHB3: Ephrin type-B receptor 3 (EPHB3, Homo sapiens, UniProt P54753)
SLC6A2: Sodium-dependent noradrenaline transporter (SLC6A2, Homo sapiens, UniProt P23975)
APP Aβ1-40: Amyloid-beta precursor protein, Aβ1-40 (APP, Homo sapiens, UniProt P05067)
Sigmar1: Sigma non-opioid intracellular receptor 1 (Sigmar1, Rattus norvegicus, UniProt Q9R0C9)
SIRT1: NAD-dependent protein deacetylase sirtuin-1 (SIRT1, Homo sapiens, UniProt Q96EB6)
MGLL: Monoglyceride lipase (MGLL, Homo sapiens, UniProt Q99685)

Chains of the proteins cited; added tags and fusions are not shown. Residues count along the entry.
UniProt Q9HCG7, whole entry: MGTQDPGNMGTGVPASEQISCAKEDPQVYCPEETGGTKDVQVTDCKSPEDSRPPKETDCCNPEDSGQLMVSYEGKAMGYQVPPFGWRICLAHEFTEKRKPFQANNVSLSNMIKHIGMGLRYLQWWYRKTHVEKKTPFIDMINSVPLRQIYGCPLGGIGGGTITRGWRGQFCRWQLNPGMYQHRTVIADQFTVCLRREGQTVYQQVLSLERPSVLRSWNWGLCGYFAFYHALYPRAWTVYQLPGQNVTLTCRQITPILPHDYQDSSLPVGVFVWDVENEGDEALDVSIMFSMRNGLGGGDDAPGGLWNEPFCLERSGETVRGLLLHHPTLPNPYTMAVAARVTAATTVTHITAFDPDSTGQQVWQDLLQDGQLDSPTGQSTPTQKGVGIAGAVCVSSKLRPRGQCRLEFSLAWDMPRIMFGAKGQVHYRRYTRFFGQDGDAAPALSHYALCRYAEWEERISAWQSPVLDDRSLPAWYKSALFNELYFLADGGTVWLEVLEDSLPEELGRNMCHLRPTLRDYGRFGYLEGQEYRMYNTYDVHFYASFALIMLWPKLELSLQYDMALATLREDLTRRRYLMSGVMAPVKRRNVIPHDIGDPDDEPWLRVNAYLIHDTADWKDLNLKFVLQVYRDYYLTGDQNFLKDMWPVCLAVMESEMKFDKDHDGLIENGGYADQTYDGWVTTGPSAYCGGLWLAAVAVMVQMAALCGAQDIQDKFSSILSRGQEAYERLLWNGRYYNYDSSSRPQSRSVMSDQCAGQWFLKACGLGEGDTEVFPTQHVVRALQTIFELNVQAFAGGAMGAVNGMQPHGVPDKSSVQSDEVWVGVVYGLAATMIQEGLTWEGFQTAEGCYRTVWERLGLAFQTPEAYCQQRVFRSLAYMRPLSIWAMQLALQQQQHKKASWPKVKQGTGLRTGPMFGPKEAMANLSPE
UniProt P23975, whole entry: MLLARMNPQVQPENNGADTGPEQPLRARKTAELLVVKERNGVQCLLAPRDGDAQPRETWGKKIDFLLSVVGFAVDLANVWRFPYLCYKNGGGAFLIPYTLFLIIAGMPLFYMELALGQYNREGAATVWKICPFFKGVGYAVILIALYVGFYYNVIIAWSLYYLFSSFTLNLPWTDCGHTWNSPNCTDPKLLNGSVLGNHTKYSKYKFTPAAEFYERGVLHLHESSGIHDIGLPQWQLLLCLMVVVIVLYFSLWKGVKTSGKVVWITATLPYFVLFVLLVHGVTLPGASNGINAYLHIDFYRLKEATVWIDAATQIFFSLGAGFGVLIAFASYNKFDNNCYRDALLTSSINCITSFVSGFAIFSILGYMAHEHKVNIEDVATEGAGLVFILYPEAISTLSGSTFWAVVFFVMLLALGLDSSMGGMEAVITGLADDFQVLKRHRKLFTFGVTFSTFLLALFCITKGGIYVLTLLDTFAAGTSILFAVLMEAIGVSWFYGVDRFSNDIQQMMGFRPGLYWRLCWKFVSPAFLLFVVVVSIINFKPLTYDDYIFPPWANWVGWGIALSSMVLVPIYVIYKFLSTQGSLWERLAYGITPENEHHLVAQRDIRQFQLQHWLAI
UniProt P05067, whole entry, looked up: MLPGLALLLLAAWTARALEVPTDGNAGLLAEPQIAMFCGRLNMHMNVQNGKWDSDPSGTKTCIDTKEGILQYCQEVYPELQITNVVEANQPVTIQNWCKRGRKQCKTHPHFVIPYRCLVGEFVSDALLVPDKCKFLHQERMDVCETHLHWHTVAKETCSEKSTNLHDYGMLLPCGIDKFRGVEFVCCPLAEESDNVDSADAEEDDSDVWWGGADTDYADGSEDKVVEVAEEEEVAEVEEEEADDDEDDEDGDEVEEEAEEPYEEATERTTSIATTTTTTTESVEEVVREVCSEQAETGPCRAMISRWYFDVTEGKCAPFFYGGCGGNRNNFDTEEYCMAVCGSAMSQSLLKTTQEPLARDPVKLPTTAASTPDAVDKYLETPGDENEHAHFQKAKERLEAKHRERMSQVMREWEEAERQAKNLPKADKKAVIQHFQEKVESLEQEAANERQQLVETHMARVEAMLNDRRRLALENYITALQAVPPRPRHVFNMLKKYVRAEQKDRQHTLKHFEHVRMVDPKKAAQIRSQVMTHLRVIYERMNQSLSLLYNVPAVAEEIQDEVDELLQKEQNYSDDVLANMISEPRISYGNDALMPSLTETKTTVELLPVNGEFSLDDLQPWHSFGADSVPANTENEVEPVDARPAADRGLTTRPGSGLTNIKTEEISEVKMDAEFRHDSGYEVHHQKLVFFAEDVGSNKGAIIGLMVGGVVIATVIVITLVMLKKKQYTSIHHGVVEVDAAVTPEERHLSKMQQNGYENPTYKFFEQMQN
UniProt Q9R0C9, whole entry: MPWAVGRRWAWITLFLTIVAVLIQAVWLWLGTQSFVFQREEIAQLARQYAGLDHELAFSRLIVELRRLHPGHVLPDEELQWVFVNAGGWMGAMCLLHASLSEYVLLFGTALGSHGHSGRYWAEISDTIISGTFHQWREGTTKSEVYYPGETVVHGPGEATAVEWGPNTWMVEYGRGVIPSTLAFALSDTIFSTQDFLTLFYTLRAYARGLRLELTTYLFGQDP
UniProt Q99685, whole entry: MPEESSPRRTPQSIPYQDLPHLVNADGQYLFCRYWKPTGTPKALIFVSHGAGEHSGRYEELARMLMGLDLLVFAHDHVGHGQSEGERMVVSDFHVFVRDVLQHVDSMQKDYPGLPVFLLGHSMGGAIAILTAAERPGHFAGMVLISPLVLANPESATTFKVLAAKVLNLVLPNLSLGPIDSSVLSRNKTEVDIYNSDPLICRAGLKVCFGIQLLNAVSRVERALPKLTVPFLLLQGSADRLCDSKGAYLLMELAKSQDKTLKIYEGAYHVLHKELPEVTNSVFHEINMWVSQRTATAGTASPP
UniProt P80457, whole entry: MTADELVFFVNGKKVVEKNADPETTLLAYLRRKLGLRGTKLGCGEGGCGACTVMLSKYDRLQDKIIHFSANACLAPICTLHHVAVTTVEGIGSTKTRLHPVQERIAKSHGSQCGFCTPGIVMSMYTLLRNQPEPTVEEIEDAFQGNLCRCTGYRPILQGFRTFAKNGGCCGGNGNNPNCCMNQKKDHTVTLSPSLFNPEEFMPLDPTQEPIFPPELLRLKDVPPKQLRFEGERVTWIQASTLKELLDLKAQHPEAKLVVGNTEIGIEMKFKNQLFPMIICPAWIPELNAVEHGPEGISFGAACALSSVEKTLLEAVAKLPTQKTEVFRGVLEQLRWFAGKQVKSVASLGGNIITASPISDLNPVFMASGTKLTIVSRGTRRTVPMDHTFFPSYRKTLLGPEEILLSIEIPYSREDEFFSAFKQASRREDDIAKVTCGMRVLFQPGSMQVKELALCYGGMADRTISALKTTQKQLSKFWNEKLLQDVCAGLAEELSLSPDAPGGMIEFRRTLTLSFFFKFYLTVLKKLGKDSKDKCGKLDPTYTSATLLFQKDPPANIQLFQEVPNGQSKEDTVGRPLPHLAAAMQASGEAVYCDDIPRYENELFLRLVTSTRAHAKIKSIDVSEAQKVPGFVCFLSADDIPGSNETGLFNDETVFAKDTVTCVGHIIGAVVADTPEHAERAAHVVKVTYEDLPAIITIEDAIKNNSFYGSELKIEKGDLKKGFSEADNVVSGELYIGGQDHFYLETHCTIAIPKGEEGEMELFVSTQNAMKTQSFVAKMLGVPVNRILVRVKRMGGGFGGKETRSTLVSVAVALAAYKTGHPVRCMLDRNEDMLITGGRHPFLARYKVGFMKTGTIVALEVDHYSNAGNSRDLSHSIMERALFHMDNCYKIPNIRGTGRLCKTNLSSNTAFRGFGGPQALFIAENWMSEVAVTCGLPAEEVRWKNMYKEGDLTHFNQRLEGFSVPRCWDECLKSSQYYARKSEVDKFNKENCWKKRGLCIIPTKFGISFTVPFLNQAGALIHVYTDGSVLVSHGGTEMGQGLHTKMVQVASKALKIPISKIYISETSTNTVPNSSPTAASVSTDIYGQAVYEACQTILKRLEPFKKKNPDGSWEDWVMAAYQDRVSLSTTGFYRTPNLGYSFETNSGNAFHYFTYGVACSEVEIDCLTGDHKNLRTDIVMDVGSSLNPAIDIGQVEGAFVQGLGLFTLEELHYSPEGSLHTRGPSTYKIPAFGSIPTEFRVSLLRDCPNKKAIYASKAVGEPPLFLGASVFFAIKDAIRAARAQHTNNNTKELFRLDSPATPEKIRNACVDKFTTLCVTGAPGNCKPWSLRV
UniProt Q8IXJ6, whole entry, looked up: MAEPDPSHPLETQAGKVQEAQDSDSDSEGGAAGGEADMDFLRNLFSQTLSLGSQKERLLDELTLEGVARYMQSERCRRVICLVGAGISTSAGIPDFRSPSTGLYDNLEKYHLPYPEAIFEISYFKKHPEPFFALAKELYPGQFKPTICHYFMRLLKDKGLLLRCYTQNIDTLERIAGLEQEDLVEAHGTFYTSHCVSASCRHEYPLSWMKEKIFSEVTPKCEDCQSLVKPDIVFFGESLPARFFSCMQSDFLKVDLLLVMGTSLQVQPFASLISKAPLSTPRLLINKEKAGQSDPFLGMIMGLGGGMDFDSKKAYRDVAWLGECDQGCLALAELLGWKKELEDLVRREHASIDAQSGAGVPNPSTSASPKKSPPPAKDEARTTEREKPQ
UniProt Q8N6T7, whole entry: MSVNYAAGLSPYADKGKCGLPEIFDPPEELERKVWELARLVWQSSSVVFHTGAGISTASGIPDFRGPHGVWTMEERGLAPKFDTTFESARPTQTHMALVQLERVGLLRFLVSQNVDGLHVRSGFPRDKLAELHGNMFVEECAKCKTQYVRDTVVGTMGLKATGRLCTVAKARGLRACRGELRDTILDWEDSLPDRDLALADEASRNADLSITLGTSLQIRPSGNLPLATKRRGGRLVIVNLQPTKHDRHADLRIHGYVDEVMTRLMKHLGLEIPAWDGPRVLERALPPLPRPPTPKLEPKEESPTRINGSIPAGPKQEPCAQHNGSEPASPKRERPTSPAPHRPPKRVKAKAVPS
UniProt Q96PU5, 594-975 limits assumed: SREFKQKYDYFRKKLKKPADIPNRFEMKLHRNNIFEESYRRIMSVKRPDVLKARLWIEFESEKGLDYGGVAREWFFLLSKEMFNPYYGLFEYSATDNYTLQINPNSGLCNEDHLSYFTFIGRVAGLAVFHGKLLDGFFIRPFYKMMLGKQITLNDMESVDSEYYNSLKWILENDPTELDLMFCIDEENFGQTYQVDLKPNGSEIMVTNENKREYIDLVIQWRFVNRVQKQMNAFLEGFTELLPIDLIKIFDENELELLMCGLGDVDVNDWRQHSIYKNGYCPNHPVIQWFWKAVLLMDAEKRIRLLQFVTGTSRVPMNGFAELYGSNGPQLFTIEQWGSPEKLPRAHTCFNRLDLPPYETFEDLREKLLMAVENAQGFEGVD
UniProt Q15910, whole entry: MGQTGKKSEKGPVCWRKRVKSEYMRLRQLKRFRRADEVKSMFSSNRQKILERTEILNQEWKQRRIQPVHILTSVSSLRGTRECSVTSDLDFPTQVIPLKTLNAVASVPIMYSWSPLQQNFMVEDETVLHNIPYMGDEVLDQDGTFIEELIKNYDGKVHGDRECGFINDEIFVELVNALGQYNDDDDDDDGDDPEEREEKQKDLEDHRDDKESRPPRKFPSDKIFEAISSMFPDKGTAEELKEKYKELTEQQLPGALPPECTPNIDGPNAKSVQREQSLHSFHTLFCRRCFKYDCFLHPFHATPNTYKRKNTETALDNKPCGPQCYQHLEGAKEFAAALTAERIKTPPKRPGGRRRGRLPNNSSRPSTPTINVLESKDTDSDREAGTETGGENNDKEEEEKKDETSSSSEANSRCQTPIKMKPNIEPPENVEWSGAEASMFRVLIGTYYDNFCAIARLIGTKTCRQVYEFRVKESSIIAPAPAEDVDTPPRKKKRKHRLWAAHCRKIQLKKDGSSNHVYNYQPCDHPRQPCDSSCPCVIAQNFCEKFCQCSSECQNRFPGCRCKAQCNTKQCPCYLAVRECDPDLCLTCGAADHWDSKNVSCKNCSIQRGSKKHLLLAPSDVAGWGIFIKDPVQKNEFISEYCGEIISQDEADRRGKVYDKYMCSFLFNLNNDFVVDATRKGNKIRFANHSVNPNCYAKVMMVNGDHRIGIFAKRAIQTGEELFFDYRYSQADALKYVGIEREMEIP
UniProt Q8C6L5, whole entry, looked up: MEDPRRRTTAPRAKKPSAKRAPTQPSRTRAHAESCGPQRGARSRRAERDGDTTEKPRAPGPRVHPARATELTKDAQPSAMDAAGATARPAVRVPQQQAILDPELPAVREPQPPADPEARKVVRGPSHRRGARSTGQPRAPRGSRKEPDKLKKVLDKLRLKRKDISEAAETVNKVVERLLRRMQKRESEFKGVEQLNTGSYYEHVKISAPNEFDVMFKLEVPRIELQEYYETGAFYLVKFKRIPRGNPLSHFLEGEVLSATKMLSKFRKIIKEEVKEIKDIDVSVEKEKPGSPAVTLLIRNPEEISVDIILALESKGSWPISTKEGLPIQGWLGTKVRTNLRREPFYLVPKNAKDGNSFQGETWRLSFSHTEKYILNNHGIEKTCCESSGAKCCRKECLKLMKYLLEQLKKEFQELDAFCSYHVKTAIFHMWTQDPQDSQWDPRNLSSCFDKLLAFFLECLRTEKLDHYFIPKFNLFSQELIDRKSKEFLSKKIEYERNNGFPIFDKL

O=C(NC1CC1)C(=O)[C@H](Cc1ccccc1)NC(=O)[C@H]1CCC(=O)N1Cc1ccccc1  inhibition (CTSB; enzyme activity, inhibitor; 1 µM): 13.2%
C[C@@H](OCCCCCN1C[C@H](O)[C@@H](O)[C@H](O)[C@@H]1CO)c1ccc(-c2ccccc2)cc1  inhibition (GBA2; inhibitor, FluoPol-ABPP competition; GBA2-overexpressing cell lysate; 0.1 µM): 0.1%
Oc1ccccc1C1=NCCS1  inhibition (Adenosine deaminase (ADA, Bos taurus, UniProt P56658); enzyme activity, inhibitor, fluorescence; 100 µM): no inhibition
CCNC(=O)C(=O)[C@H](Cc1ccccc1)NC(=O)[C@H]1CCC(=O)N1Cc1ccccc1  inhibition (CTSB; enzyme activity, inhibitor; 1 µM): 0%
CC(C)(C1CS1)S(=O)(=O)c1ccc(Oc2ccccc2)cc1 (stereo not shown)  inhibition (72 kDa type IV collagenase (MMP2, Homo sapiens, UniProt P08253); enzyme activity, inhibitor, progress curves; concentration not given): no inhibition
O=C(CF)c1ccc2c(Nc3ccccc3)ncnc2c1  inhibition (EPHB3; kinase activity, inhibitor; 2 µM; baseline: DMSO): > 80%
O=C(NS(=O)(=O)c1cccc([N+](=O)[O-])c1)c1cc2ccccc2n1Cc1ccc(Br)c2ccccc12  inhibition (Xanthine dehydrogenase/oxidase (XDH, Bos taurus, UniProt P80457); enzyme activity, spectrophotometry; 10 µM): 5.31%
CNc1nc(C#Cc2ccc(Cl)s2)nc2c1ncn2[C@H]1[C@H](O)[C@H](O)[C@]2(C#N)C[C@H]12  inhibition (SLC6A2; binding, radioligand binding; HEK293; 10 µM, negative means enhanced binding, added: [3H]nisoxetine): -39 ± 11%
CCCCCCCCCCCCNC(=S)NCCCC[C@H](NC(=O)CCCCCCCC)C(=O)N[C@H](C)C(=O)N[C@@H](CCCNC(=N)N)C(N)=O  inhibition (NAD-dependent protein deacetylase sirtuin-2 (SIRT2, Homo sapiens, UniProt Q8IXJ6); demyristoylation, inhibitor; 100 µM, added: myristoylated peptide 50 µM): 47%
N#Cc1ccc2[nH]cc(/C=C/c3cccc(O)c3)c2c1  inhibition (APP Aβ1-40; Aβ40 aggregation, thioflavin T fluorescence; 25 µM): 24%
OC[C@@H]1[C@@H](O)[C@H](O)[C@@H](O)CN1CCCCCOCc1ccc(-c2cccnc2)cc1  inhibition (GBA2; inhibitor, FluoPol-ABPP competition; GBA2-overexpressing cell lysate; 0.1 µM): 4.4%
Nc1ncc(-c2ccc3ncnc(N4CCc5cc(F)c(Cl)cc54)c3c2)cn1  AUC(0-t) (CD1 mouse, brain; oral, 100 mg/kg): 233 µg·h/mL
C/C(=N\OCCN1CCCc2ccccc2C1)c1ccc(C(F)(F)F)cc1  inhibition (Sigmar1; radioligand binding; rat; 10 µM): 95.1%
COC(=O)[C@@H]1C(C=Nc2nccs2)=Cc2cc3c(cc2[C@H]1c1cc(OC)c(OC)c(OC)c1)OCO3  selectivity index (Leishmania; mouse splenocytes; baseline: CC50 over amastigote EC50): 7.7
CCNC(=O)C(=O)[C@H](Cc1ccccc1)NC(=O)[C@H]1CCC(=O)N1Cc1ccc(F)cc1  inhibition (CTSB; enzyme activity, inhibitor; 1 µM): 0%
C/C(=N\OCCNCC1CC1)c1ccc(C(F)(F)F)cc1  inhibition (Sigmar1; radioligand binding; rat; 10 µM): 91.3%
CNc1nc(C#Cc2ccc(Cl)s2)nc2c1ncn2[C@H]1[C@H](O)[C@H](O)[C@]2(C(=O)OC(C)C)C[C@H]12  inhibition (SLC6A2; binding, radioligand binding; HEK293; 10 µM, negative means enhanced binding, added: [3H]nisoxetine): 37 ± 2%
O=C(Nc1cccc(F)c1)c1cc(S(=O)(=O)N2CCOCC2)c(Cl)cc1Cl  inhibition (Autotaxin (ENPP2, Homo sapiens, UniProt Q13822); enzyme activity; 10 µM, 2 h, 37 °C, added: 100 µM LPC 18:0): 43.6 ± 2.6%
CCCSc1nc(N[C@@H]2C[C@H]2c2ccc(F)c(F)c2)c2nnn([C@@H]3C[C@H](O)[C@@H](O)[C@H]3O)c2n1  inhibition (Sodium-dependent dopamine transporter (SLC6A3, Homo sapiens, UniProt Q01959); binding; concentration not given, rat free Cmax): no inhibition
Cc1n[nH]c(C)c1CCCOc1ccccc1F  inhibition (Prostaglandin G/H synthase 1 (PTGS1, Homo sapiens, UniProt P23219); enzyme activity; 10 µM): < 1%
NC(=O)c1ccc(C(=O)NOCc2ccccc2F)cc1  inhibition (NAD-dependent protein deacylase sirtuin-6 (SIRT6, Homo sapiens, UniProt Q8N6T7); deacetylase activity, fluorogenic; 100 µM, added: RHKK-ac-AMC): 75.5 ± 3.54%
CCOC(=O)[C@@]12C[C@@H]1[C@@H](n1cnc3c(NC)nc(C#Cc4ccc(Cl)s4)nc31)[C@H](O)[C@@H]2O  inhibition (SLC6A2; binding, radioligand binding; HEK293; 10 µM, negative means enhanced binding, added: [3H]nisoxetine): 34 ± 6%
CCCCCCCCCCCCNC(=S)NCCCC[C@H](NC(=O)c1ccccc1)C(=O)N[C@H](C)C(=O)N[C@@H](CCCNC(=N)N)C(N)=O  inhibition (SIRT1; deacetylation, inhibitor; 1 µM, added: acetylated peptide 50 µM): 49%
COC(=O)[C@@]1(C)C=C(C(=O)Nc2cccc(C(=O)NC34CC(Nc5nccc(-c6cccnc6)n5)(C3)C4)c2)C(=O)CC1  remaining activity (Mitogen-activated protein kinase 9 (MAPK9, Homo sapiens, UniProt P45984); enzyme activity, inhibitor; 0.1829 µM): 0.262 fraction of control
CS(=O)(=O)Nc1ccc(/C=C/c2c[nH]c3ccc(C#N)cc23)cc1  inhibition (APP Aβ1-40; Aβ40 aggregation, thioflavin T fluorescence; 25 µM): 31%
N#CC[C@@]12C[C@@H]1[C@@H](n1cnc3c(NCc4cccc(Cl)c4)nc(I)nc31)[C@H](O)[C@@H]2O  inhibition (SLC6A2; binding, radioligand binding; HEK293; 10 µM, negative means enhanced binding, added: [3H]nisoxetine): 33 ± 7%
O=C(NCc1ccc(F)cc1)C(=O)[C@H](Cc1ccccc1)NC(=O)[C@H]1CCC(=O)N1Cc1ccc(F)cc1  inhibition (CTSB; enzyme activity, inhibitor; 1 µM): 14.2%
COc1cc([C@@H]2c3cc4c(cc3C=C(C=O)[C@H]2C(=O)OCCCn2cnc3c(Cl)ncnc32)OCO4)cc(OC)c1OC  EC50 (Leishmania infantum; iRFP fluorescence; mouse splenocytes infected, amastigote, iRFP, ex vivo splenic explant; 48 h): 56.3 ± 1.4 µM
COc1ccc(CN(C)CCO/N=C(\C)c2ccc(C(F)(F)F)cc2)cc1  inhibition (Sigmar1; radioligand binding; rat; 10 µM): 87.8%
CCOC(=O)/C=C/CNCCCCN1c2ccccc2CCc2ccc(Cl)cc21  inhibition (E3 ubiquitin-protein ligase NEDD4-like (NEDD4L, Homo sapiens, UniProt Q96PU5); ubiquitination, Ub-TR-FRET; concentration not given, up to high concentrations): no inhibition
O=C(OC(C(F)(F)F)C(F)(F)F)N1CCc2cc(Br)ccc2C1  inhibition (MGLL; inhibitor, fluorescence; 1 µM, added: AHMMCE substrate): inactive
C/C(=N\OCCN1CCN(C2COC2)CC1)c1ccc(C(F)(F)F)cc1  inhibition (Sigmar1; radioligand binding; rat; 10 µM): 93.3%
OC[C@H]1[C@@H](O)[C@H](O)[C@@H](O)CN1CCCCCOCc1ccc(Br)cc1  inhibition (GBA2; inhibitor, FluoPol-ABPP competition; GBA2-overexpressing cell lysate; 0.1 µM): 4.8%
C/C(=N\OCCN1CCN(C)CC1)c1ccc(C(F)(F)F)cc1  inhibition (Sigmar1; radioligand binding; rat; 10 µM): 109%
O=C(CCc1ccccc1)N1CCC(O)(Cn2cnc3cc(Cl)ccc3c2=O)CC1  inhibition (Ubiquitin carboxyl-terminal hydrolase 7 (USP7, Homo sapiens, UniProt Q93009, Q351S); enzyme activity; up to 100 µM, mutant catalytic domain, added: Ub-AMC): no inhibition
N#Cc1ccc2[nH]cc(/C=C/c3c[nH]c4ccccc34)c2c1  inhibition (APP Aβ1-40; Aβ40 aggregation, thioflavin T fluorescence; 25 µM): 46%
O=C(OC(C(F)(F)F)C(F)(F)F)N1Cc2cccc(Br)c2C1  inhibition (MGLL; inhibitor, fluorescence; 1 µM, added: AHMMCE substrate): inactive
CN(C)C(=O)Cn1cc(-c2ccc(-c3cncc4ccncc34)cc2)cn1  inhibition (Cyclin-dependent kinase 7 (CDK7, Homo sapiens, UniProt P50613); enzyme activity, SelectScreen; concentration not given): no inhibition
COC(=O)/C=C/CNC(=O)c1c(C)n(C2CCCC2)c2ccc(OC)cc12  inhibition (E3 ubiquitin-protein ligase NEDD4 (Homo sapiens, UniProt P46934); ubiquitination, inhibitor, Ub-TR-FRET; 33 µM, HECT domain): 64.8 ± 22.4%
Cc1cc(NC(=O)c2cccc(NC(=O)C3=CC(C)(C)CC3=O)c2)ccc1Nc1nccc(-c2cccnc2)n1  koff (Mitogen-activated protein kinase 8 (MAPK8, Homo sapiens, UniProt P45983, C116S); surface plasmon resonance; 100, 300, 1000 nM, 1:1 binding model): 0.0412 s⁻¹
CC(=O)Nc1ccc(/C=C/c2c[nH]c3ccc(F)cc23)cc1  inhibition (APP Aβ1-40; Aβ40 aggregation, thioflavin T fluorescence; 25 µM): 72%
CCCCCCCCCCCCNC(=S)NCCCC[C@H](NS(=O)(=O)c1ccccc1)C(=O)N[C@H](C)C(=O)N[C@@H](CCCNC(=N)N)C(N)=O  inhibition (SIRT1; deacetylation, inhibitor; 1 µM, added: acetylated peptide 50 µM): 21%
CCC1NC(=O)C(CCCNC(=N)N)NC(=O)C(C)(NC(=O)C(C)C)CCCCNC(=O)C(c2ccccc2)NC1=O (stereo not shown)  inhibition (Histone-lysine N-methyltransferase EZH2, PRC2 complex (EZH2, Homo sapiens, UniProt Q15910); methyltransferase activity, inhibitor; up to 500 µM): no inhibition
CC[C@@]1(c2cccc(C)c2)C(=O)N(C(=O)OC)N1C(=O)OC  inhibition (Palmitoyl-protein thioesterase ABHD10, mitochondrial (Mus musculus, UniProt Q6PE15); inhibitor, competitive ABPP-MudPIT; mouse brain proteome; 2 µM; baseline: DMSO): inhibited
N#Cc1ccc2[nH]cc(/C=C/c3cccnc3)c2c1  inhibition (APP Aβ1-40; Aβ40 aggregation, thioflavin T fluorescence; 25 µM): 11%
O=C(CCl)Nc1ccc2c(Nc3ccccc3)ncnc2c1  inhibition (EPHB3; kinase activity, inhibitor, kinase panel; 300 nM): inhibited
N#Cc1ccc2[nH]cc(/C=C/c3ccncc3)c2c1  inhibition (APP Aβ1-40; Aβ40 aggregation, thioflavin T fluorescence; 25 µM): 18%
Nc1ccc(-c2cc(Cl)c(Cl)c3[nH]c4c(c23)CN(C(=O)CO)CC4)cn1  inhibition (Cyclic GMP-AMP synthase (Cgas, Mus musculus, UniProt Q8C6L5); inhibitor, pyrophosphatase-coupled; concentration not given): inactive
COc1ccc2[nH]cc(/C=C/c3cccc(F)c3)c2c1  inhibition (APP Aβ1-40; Aβ40 aggregation, thioflavin T fluorescence; 25 µM): 41%
O=C(NNC(=S)Nc1cccc(C(F)(F)F)c1)c1cccn1-c1ccc(F)cc1  inhibition (AHSA1/HSP90AB1 (Homo sapiens, UniProt O95433+P08238); Aha1-stimulated ATPase activity, inhibitor; 5 µM): inhibited
COc1ccc2[nH]cc(/C=C/c3cccnc3)c2c1  inhibition (APP Aβ1-40; Aβ40 aggregation, thioflavin T fluorescence; 25 µM): 27%
O=C(OC(C(F)(F)F)C(F)(F)F)N1CCc2ccc(Br)cc2C1  inhibition (MGLL; inhibitor, fluorescence; 1 µM, added: AHMMCE substrate): inactive

Repeated from above:
CC[C@@]1(c2cccc(C)c2)C(=O)N(C(=O)OC)N1C(=O)OC  inhibition (Palmitoyl-protein thioesterase ABHD10, mitochondrial (Mus musculus, UniProt Q6PE15); inhibitor, competitive ABPP-MudPIT; mouse brain proteome; 2 µM; baseline: DMSO): inhibited
N#Cc1ccc2[nH]cc(/C=C/c3cccnc3)c2c1  inhibition (APP Aβ1-40; Aβ40 aggregation, thioflavin T fluorescence; 25 µM): 11%
O=C(CCl)Nc1ccc2c(Nc3ccccc3)ncnc2c1  inhibition (EPHB3; kinase activity, inhibitor, kinase panel; 300 nM): inhibited
